Experimental data gathered from unrelated publications.
Every numbered part comes from another study and shows a few of its results, in no order. Several values in a cell are separate wells, animals, samples, runs or records.
Chain of UniProt P07332 (whole entry, looked up): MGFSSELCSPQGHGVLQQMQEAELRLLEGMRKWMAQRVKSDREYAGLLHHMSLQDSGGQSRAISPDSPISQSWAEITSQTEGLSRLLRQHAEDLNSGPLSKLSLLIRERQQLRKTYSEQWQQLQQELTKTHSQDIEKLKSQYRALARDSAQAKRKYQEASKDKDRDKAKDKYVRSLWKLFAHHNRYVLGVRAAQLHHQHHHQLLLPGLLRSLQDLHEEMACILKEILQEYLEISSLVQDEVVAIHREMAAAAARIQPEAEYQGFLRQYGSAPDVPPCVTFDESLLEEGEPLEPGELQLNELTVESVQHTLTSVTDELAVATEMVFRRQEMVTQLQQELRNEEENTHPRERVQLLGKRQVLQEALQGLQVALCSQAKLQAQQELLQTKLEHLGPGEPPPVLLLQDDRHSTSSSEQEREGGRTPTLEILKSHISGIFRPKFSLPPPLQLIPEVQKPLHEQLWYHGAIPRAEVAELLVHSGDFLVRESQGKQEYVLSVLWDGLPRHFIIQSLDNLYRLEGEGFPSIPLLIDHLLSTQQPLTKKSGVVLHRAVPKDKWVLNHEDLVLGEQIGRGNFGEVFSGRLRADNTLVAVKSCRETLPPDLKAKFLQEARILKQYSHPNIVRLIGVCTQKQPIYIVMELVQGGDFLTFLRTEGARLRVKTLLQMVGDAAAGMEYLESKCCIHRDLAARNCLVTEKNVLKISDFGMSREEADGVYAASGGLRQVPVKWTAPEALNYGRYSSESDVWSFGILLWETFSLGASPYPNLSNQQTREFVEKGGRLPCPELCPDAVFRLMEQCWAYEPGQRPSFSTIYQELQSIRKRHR
Chain of UniProt O75582 (whole entry, looked up): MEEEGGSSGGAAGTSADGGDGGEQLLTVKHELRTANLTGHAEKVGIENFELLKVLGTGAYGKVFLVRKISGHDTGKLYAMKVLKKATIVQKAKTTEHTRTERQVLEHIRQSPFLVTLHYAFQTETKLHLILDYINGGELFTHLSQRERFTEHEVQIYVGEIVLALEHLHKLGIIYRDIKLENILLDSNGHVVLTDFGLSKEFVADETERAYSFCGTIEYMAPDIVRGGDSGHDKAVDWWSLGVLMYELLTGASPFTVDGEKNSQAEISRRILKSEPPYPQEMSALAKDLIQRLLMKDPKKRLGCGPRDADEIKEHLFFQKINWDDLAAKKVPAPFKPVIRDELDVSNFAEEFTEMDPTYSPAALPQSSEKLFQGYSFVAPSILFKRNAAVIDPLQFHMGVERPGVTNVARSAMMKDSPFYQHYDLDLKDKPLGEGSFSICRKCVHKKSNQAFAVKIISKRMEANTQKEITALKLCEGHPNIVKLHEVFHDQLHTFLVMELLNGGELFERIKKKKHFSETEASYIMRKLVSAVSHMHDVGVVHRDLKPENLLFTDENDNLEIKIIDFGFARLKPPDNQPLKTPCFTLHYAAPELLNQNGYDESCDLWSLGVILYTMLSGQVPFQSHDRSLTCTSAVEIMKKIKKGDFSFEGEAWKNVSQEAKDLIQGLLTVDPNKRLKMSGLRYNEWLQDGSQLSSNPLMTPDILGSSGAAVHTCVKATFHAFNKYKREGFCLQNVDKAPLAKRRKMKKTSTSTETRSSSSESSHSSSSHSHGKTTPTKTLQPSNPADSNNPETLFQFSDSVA

Study 1 — tested at: 50 µM
Target: Bromodomain-containing protein 4, BD1 (BRD4, Homo sapiens, UniProt O60885)
| Structure (SMILES) | inhibition |
| --- | --- |
| COc1cc2ncnc(Nc3ccc(F)c(Cl)c3)c2cc1OCCCN1CCOCC1 | 16.4% |
| CO[C@@H]1[C@H](N(C)C(=O)c2ccccc2)C[C@H]2O[C@]1(C)n1c3ccccc3c3c4c(c5c6ccccc6n2c5c31)C(=O)NC4 | 5.15% |
| CC(C)(C)c1cc(NC(=O)Nc2ccc(-c3cn4c(n3)sc3cc(OCCN5CCOCC5)ccc34)cc2)no1 | 57.6% |
| COc1cc2nccc(Oc3ccc(NC(=O)Nc4cc(C)on4)c(Cl)c3)c2cc1OC | 32.6% |
| O=S(=O)(c1cccc2cnccc12)N1CCCNCC1 | -5.85% and -0.55% |
| CC[C@H](CO)Nc1nc(NCc2ccccc2)c2ncn(C(C)C)c2n1 | 13.6% |
| CN1CCC(COc2cnc(-c3cccc(Cn4nc(-c5cccc(C#N)c5)ccc4=O)c3)nc2)CC1 | 21.6% |
| Cc1c(Cn2c(C)nc3c(C(=O)O)cc(N4CCOCC4)cc32)cccc1C(F)(F)F | 99.7% |

Study 2 — read-out: enzyme activity; mode: inhibitor; tested at: 77 µM; relative to: untreated
Target: DNA polymerase theta, ATPase domain (POLQ, Homo sapiens, UniProt O75417)
Chain of UniProt O75417 (whole entry, unmodified, looked up): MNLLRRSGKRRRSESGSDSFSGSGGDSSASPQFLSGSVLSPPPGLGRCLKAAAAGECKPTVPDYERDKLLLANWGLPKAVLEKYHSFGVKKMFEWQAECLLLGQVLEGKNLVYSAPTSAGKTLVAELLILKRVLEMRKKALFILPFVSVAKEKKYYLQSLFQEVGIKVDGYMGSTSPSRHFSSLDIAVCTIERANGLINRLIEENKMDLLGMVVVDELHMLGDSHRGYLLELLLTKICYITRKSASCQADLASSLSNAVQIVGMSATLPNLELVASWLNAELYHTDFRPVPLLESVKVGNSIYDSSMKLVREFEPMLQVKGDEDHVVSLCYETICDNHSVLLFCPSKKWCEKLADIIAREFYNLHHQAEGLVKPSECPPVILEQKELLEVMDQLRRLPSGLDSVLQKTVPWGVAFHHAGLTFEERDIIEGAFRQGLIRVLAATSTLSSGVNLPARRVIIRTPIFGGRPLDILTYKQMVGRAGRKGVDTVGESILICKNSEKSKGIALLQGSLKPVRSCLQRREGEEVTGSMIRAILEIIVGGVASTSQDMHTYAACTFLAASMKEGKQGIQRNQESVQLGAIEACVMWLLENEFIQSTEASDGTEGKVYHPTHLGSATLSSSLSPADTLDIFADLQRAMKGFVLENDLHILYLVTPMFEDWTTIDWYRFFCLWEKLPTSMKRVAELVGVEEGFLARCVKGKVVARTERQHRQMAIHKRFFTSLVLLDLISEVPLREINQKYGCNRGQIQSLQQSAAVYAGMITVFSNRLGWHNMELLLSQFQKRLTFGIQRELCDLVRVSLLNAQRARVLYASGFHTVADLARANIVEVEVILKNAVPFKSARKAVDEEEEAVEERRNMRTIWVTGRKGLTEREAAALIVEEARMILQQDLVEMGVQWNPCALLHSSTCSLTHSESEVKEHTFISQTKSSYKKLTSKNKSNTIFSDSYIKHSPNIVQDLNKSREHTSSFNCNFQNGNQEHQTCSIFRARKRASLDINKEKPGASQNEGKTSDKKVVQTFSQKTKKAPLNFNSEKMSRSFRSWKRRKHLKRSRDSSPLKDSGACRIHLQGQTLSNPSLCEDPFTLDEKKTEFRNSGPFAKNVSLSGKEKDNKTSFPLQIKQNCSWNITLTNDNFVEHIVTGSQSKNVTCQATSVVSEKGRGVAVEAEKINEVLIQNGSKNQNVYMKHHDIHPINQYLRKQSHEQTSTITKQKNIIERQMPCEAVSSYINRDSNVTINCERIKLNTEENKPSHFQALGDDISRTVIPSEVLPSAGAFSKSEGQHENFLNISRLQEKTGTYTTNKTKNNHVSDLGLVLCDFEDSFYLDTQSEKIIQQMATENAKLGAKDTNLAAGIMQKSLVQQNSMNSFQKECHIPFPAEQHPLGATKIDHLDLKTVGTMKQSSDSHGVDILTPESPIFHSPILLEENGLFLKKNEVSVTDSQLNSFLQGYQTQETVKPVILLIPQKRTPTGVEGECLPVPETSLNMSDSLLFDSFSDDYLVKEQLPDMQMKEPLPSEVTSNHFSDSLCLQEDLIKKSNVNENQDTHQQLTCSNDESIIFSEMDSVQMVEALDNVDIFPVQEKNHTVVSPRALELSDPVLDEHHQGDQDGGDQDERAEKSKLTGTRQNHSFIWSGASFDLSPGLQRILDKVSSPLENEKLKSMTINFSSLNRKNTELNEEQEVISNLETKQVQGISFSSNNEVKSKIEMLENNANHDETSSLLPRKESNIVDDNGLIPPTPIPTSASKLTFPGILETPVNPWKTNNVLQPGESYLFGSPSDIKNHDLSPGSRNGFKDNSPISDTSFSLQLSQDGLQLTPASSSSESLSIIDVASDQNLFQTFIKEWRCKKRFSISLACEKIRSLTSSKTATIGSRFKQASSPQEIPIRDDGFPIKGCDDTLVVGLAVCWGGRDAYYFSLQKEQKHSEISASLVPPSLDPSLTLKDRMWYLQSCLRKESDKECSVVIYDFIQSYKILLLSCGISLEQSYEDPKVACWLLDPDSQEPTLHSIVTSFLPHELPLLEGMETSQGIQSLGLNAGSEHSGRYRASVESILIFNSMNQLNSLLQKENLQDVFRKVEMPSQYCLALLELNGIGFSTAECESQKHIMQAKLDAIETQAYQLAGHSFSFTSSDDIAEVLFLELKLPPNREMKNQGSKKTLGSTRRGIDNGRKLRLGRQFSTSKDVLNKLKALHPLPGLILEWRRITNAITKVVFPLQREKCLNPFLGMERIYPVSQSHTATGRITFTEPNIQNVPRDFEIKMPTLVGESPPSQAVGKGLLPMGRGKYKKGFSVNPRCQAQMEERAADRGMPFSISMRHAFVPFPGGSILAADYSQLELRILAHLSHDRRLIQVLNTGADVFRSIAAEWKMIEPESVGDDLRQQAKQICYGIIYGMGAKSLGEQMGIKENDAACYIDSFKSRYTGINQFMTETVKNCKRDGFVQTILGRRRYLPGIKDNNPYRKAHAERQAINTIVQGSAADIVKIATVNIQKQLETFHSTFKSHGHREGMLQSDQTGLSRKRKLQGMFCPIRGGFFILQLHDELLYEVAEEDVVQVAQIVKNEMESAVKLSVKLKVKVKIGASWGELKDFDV
| Structure (SMILES) | remaining activity |
| --- | --- |
| CC(C)(C)Cn1c(N)nc2ccc(-c3[nH]c(C(C)(C)C)nc3-c3ccc(F)cc3)nc21 | 102% |
| CC(=O)N[C@@H](CC(C)C)C(=O)N[C@@H](CC(C)C)C(=O)N[C@H](C=O)CCCN=C(N)N | 102% |
| Cc1ccc(C(=O)C(C)CN2CCCCC2)cc1 (centres unmarked) | 107% |
| C[N+]1(C)C[C@H](O)C[C@H]1C(=O)[O-] | 99.1% |
| OC[C@H]1O[C@@H](n2cnc3c(N[C@H]4CCC[C@@H]4O)ncnc32)[C@H](O)[C@@H]1O | 115% |
| c1ccc(-c2n[nH]c3c2oc2ccccc23)cc1 | 113% |
| N=C(N)NS(=O)(=O)c1ccc(N)cc1 | 97.9% and 95.4% |
| CCOc1cc(N)c(Cl)cc1C(=O)NCC1CN(Cc2ccc(F)cc2)CCO1 (centres unmarked) | 91.4% |
| CCN(CC)CCOC(=O)c1ccc(N)cc1Cl | 101% |
| CC1(C)C(=O)N(CCN2CCC(C(=O)c3ccc(F)cc3)CC2)c2ccccc21 | 111% |

Study 3 — read-out: enzyme activity; mode: inhibitor; tested at: 10 µM
Target: Calcium/calmodulin-dependent protein kinase type II subunit alpha (CAMK2A, Homo sapiens, UniProt Q9UQM7)
Chain of UniProt Q9UQM7 (whole entry, looked up): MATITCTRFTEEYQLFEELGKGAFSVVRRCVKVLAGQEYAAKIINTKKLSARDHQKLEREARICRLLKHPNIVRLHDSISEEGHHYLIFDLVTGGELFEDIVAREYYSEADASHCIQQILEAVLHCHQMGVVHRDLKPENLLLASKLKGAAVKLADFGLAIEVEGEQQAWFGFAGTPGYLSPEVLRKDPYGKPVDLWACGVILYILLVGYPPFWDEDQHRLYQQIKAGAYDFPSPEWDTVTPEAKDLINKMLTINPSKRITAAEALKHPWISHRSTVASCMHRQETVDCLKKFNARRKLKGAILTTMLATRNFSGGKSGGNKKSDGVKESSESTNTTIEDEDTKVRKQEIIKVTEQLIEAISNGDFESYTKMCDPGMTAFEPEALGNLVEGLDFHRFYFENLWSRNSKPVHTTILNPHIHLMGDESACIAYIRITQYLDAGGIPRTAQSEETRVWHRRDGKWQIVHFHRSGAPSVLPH
| SMILES | inhibition [%] |
| --- | --- |
| CCCCCCCCCCCCCCCCCCCCCCCCC | 13 |
| CCNC(=O)CCC/C=C\C[C@@H]1[C@@H](/C=C/[C@@H](O)CCc2ccccc2)[C@H](O)C[C@@H]1O | -13 |
| COC(=O)C1=C(C)NC(C)=C(C(=O)OCCN(C)Cc2ccccc2)C1c1cccc([N+](=O)[O-])c1 (centres unmarked) | 0 |
| Cc1ccnc2c1NC(=O)c1cccnc1N2C1CC1 | 3 |
| OC[C@H]1O[C@@H](OCCc2ccc(O)cc2)[C@H](O)[C@@H](O)[C@@H]1O | -20 |
| COc1c2occc2cc2ccc(=O)oc12 | 4 |
| C[C@H]1COc2c(C3(N)CC3)c(F)cc3c(=O)c(C(=O)O)cn1c23 | -3 |
| Cc1ccc2c(Cl)cc(Cl)c(O)c2n1 | -8 |

Study 4 — tested at: 1 µM
Compound: CO[C@H]1CC[C@H](CNc2ccc(S(=O)(=O)NC(=O)c3ccc(N4CCN(CC5=C(c6ccc(Cl)cc6)CC(C)(C)CC5)CC4)cc3Oc3cnc4[nH]ccc4c3)cc2[N+](=O)[O-])CC1
| target | read-out | technique | remaining binding |
| --- | --- | --- | --- |
| FES (Homo sapiens, UniProt P07332) | cell-free assay | competition with immobilised ligand | 100% |
| PIK3CA (Homo sapiens, UniProt P42336, H1047L) | cell-free assay | competition with immobilised ligand | 90% |
| PI4KB (Homo sapiens, UniProt Q9UBF8) | cell-free assay | competition with immobilised ligand | 97% |
| MAP4K3 (Homo sapiens, UniProt Q8IVH8) | cell-free assay | competition with immobilised ligand | 99% |
| PKMYT1 (Homo sapiens, UniProt Q99640) | cell-free assay | competition with immobilised ligand | 100% |
| TEK (Homo sapiens, UniProt Q02763) | cell-free assay | competition with immobilised ligand | 69% |
| MAP3K5 (Homo sapiens, UniProt Q99683) | cell-free assay | competition with immobilised ligand | 78% |
| EPHB6 (Homo sapiens, UniProt O15197) | cell-free assay | competition with immobilised ligand | 87% |
| Tyrosine-protein kinase ABL1, phosphorylated (ABL1, Homo sapiens, UniProt P00519, F317I) | binding | – | 100% |
| CHEK1 (Homo sapiens, UniProt O14757) | cell-free assay | competition with immobilised ligand | 90% |
| PIP5K1A (Homo sapiens, UniProt Q99755) | cell-free assay | competition with immobilised ligand | 86% |
| EPHB3 (Homo sapiens, UniProt P54753) | cell-free assay | competition with immobilised ligand | 94% |
| Ribosomal protein S6 kinase alpha-5, C-terminal kinase domain (RPS6KA5, Homo sapiens, UniProt O75582) | cell-free assay | competition with immobilised ligand | 90% |
| FLT4 (Homo sapiens, UniProt P35916) | cell-free assay | competition with immobilised ligand | 89% |
| CSF1R (Homo sapiens, UniProt P07333) | cell-free assay | competition with immobilised ligand | 86% |

Some of these lines once more (study 2):
| Structure (SMILES) | remaining activity |
| --- | --- |
| CCOc1cc(N)c(Cl)cc1C(=O)NCC1CN(Cc2ccc(F)cc2)CCO1 (centres unmarked) | 91.4% |
| N=C(N)NS(=O)(=O)c1ccc(N)cc1 | 97.9% and 95.4% |
| CC(=O)N[C@@H](CC(C)C)C(=O)N[C@@H](CC(C)C)C(=O)N[C@H](C=O)CCCN=C(N)N | 102% |
| C[N+]1(C)C[C@H](O)C[C@H]1C(=O)[O-] | 99.1% |
